{"data": "Published values from different studies", "note": "Parts stem from different laboratories: compare values within a part only. Several values in a cell are separate wells, animals, samples, runs or records.", "chain of UniProt O75385 (whole entry, looked up)": "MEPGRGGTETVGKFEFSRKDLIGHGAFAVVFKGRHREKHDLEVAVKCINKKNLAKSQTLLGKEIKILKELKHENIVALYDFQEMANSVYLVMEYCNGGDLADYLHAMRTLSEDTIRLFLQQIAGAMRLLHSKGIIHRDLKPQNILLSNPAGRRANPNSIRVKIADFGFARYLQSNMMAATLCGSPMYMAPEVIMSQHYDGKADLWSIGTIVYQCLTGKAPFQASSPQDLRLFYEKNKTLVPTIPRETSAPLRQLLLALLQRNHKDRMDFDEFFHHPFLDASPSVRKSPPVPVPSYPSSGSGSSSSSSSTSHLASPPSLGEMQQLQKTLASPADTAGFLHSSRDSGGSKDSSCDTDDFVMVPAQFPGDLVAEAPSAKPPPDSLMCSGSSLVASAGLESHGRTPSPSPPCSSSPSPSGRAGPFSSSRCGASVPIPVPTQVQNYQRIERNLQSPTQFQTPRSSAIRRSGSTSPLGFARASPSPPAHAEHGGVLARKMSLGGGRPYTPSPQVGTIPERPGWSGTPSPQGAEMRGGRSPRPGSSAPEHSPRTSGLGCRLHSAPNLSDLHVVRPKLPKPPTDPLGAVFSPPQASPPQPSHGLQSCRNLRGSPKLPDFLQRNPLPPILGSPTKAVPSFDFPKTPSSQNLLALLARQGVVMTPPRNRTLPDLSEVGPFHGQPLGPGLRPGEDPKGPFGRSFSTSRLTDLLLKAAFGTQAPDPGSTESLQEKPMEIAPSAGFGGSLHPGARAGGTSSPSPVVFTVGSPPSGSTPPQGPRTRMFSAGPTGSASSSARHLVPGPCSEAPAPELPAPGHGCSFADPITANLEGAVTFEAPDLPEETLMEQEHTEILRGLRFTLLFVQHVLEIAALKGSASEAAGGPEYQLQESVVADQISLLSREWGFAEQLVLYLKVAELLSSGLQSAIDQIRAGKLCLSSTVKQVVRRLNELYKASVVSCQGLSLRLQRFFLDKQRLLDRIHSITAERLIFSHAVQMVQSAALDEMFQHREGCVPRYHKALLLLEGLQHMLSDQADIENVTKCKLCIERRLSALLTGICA", "chain of UniProt P10721 (whole entry, unmodified, looked up)": "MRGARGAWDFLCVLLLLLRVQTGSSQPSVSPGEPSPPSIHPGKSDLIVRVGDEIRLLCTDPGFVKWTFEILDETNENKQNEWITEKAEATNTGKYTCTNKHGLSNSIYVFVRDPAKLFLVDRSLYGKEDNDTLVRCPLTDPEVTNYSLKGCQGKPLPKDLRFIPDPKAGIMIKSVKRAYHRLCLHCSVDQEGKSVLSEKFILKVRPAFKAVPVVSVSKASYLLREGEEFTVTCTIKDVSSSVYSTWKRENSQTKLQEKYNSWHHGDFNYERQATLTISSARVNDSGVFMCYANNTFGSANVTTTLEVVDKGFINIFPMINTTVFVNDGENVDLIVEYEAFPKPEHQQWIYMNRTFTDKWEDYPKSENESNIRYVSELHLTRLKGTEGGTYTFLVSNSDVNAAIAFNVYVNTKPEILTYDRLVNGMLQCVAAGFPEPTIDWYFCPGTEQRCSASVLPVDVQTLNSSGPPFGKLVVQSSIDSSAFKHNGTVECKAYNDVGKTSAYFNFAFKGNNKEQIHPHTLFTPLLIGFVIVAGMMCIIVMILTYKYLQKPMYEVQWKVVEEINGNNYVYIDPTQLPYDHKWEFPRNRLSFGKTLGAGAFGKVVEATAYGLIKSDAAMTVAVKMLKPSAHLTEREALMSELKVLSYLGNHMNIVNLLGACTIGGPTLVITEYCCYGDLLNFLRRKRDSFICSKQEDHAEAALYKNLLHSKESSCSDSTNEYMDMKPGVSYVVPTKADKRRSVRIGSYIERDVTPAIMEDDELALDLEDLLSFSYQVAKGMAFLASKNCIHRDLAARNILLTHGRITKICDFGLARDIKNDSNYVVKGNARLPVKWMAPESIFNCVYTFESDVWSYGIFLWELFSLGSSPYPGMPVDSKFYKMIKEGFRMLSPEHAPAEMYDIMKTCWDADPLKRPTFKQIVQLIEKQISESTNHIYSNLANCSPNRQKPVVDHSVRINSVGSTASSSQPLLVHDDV", "chain of UniProt Q9BUB5 (whole entry, looked up)": "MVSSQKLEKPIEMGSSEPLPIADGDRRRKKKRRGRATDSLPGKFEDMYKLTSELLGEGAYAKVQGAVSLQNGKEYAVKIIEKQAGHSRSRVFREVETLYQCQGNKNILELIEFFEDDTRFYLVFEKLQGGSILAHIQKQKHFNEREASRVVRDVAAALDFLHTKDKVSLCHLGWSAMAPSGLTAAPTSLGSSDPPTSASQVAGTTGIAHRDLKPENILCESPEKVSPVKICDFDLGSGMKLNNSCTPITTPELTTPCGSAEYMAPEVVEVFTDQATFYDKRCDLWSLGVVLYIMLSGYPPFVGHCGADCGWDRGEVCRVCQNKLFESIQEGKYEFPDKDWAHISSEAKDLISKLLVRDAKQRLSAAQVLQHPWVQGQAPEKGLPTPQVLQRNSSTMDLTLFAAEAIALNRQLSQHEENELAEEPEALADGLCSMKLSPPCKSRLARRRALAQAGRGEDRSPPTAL", "chain of UniProt P57059 (whole entry, looked up)": "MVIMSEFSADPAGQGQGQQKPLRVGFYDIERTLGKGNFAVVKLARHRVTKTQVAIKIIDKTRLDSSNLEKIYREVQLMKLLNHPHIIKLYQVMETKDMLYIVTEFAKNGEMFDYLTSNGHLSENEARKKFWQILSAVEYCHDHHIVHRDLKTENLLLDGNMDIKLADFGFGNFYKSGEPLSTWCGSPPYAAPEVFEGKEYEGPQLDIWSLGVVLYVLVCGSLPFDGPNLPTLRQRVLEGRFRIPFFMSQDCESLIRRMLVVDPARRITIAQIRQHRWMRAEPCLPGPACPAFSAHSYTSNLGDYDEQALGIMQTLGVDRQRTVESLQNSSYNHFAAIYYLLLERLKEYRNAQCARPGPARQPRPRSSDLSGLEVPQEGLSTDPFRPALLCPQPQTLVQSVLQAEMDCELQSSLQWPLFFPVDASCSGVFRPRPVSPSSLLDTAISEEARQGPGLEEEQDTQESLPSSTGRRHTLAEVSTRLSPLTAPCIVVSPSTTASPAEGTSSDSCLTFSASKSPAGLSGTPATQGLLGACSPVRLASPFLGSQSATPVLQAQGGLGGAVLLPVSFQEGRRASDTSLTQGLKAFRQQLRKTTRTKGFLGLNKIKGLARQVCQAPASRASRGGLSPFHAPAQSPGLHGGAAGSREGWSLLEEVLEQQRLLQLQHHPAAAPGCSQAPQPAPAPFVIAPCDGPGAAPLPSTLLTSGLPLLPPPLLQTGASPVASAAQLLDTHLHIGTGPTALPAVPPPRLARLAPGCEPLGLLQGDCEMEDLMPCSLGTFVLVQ", "chain of UniProt P54646 (whole entry, looked up)": "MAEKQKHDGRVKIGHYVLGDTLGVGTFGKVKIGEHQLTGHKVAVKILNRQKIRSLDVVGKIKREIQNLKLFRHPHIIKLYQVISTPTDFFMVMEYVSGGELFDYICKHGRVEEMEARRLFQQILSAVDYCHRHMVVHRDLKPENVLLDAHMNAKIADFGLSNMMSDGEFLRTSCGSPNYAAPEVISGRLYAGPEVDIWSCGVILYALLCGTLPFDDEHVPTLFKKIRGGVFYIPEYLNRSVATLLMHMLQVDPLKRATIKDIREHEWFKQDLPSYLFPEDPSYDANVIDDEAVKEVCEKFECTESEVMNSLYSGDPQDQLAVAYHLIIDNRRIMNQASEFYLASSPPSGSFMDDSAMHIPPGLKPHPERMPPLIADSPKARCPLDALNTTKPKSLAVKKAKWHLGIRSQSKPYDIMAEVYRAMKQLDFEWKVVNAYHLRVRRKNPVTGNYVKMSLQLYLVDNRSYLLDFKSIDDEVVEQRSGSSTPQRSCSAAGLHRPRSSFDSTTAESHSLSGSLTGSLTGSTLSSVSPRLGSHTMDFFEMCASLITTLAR", "chain of UniProt P31749 (whole entry, looked up)": "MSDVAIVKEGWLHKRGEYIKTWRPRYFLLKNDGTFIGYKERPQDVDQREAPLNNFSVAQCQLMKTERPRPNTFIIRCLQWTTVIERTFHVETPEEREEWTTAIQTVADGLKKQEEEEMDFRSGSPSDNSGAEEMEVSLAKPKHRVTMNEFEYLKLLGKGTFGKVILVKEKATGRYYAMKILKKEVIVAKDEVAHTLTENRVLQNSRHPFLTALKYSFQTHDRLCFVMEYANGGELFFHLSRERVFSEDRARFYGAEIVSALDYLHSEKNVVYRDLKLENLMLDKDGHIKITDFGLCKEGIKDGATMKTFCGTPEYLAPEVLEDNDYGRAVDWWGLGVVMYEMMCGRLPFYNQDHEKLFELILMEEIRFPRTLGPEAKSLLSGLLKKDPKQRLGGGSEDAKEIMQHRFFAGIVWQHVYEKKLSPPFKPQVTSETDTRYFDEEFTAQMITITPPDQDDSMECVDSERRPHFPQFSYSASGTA"}
{"data": "Series 1", "SMILES": "CC(C)C[C@@H]1NC(=O)[C@@H](N(C)C(=O)[C@H](CC2CCC2)NC(=O)[C@@H]2C[C@@H](F)CN2C(=O)C2(C(F)(F)F)CC(F)(F)C2)CCCCNC(=O)C2(CC2)NC(=O)[C@H](Cc2cc(Cl)ccc2Cl)N(C)C1=O", "method": "flow cytometry"}
{"cell line": "A549", "setting": "2000 nM, 72 h", "cleaved PARP positive cells": "1.96% and 5.43% and 4.08%"}
{"cell line": "NCI-H82", "setting": "2000 nM, 72 h", "cleaved PARP positive cells": "4.37% and 6.27% and 7.04%"}
{"cell line": "NCI-H82", "setting": "200 nM, 72 h", "cleaved PARP positive cells": "3.58% and 4.31% and 5.04%"}
{"cell line": "NCI-H446", "setting": "200 nM, 3 days, together with: Mps1 inhibitor 3 nM", "cleaved PARP positive cells": "20.4% and 18% and 21.8%"}
{"cell line": "NCI-H446", "setting": "20 nM, 72 h", "cleaved PARP positive cells": "7.76% and 5.8% and 5.67%"}
{"cell line": "human CD34+ HSPC", "setting": "300 nM, 24 h", "cleaved PARP positive cells": "0.83% and 0.53%"}
{"data": "Series 2", "method": "logD(dd/w) and ALogP", "setting": "JT method"}
{"SMILES": "CC(C)C[C@@H]1NC(=O)[C@H](C)NC(=O)[C@H](Cc2cscn2)NC(=O)[C@H](CC(C)C)NC(=O)[C@@H](CCC(=O)N2CCCC2)NC(=O)[C@H](CC(C)C)NC(=O)[C@@H](CC(C)C)NC1=O", "lipophilic permeability efficiency": 2.23}
{"SMILES": "CC(C)C[C@@H]1NC(=O)[C@H](CC(C)C)NC(=O)[C@@H](CC(C)C)NC(=O)[C@H](C(C)C)NC(=O)[C@@H](Cc2cscn2)NC(=O)[C@@H](CC(C)C)NC(=O)[C@H](C)NC1=O", "lipophilic permeability efficiency": 2.23}
{"SMILES": "CC(C)C[C@@H]1NC(=O)[C@H](Cc2cscn2)NC(=O)[C@H](C)NC(=O)[C@H](CCC(=O)N2CCCC2)NC(=O)[C@@H](CCC(=O)N2CCCC2)NC(=O)[C@H](CC(C)C)NC(=O)[C@@H](CC(C)C)NC1=O", "lipophilic permeability efficiency": 1.64}
{"SMILES": "CC(C)C[C@@H]1NC(=O)[C@H](CCC(=O)N2CCCC2)NC(=O)[C@@H](C(C)C)NC(=O)[C@H](C(C)C)NC(=O)[C@H](CC(C)C)NC(=O)[C@@H](CC(C)C)NC(=O)[C@H](CC(C)C)NC1=O", "lipophilic permeability efficiency": 2.25}
{"SMILES": "CC(C)C[C@@H]1NC(=O)[C@H](Cc2cscn2)NC(=O)[C@@H](CC(C)C)NC(=O)[C@H](C(C)C)NC(=O)[C@H](CC(C)C)NC(=O)[C@@H](CC(C)C)NC(=O)[C@H](CC(C)C)NC1=O", "lipophilic permeability efficiency": 2.39}
{"SMILES": "CC(C)C[C@@H]1NC(=O)[C@H](C)NC(=O)[C@H](CC(C)C)NC(=O)[C@@H](CC(C)C)NC(=O)[C@H](CC(C)C)NC(=O)[C@H](C(C)C)NC(=O)[C@H](CCC(=O)N2CCCC2)NC1=O", "lipophilic permeability efficiency": 1.84}
{"SMILES": "CC(C)C[C@@H]1NC(=O)[C@H](C)NC(=O)[C@H](Cc2cscn2)NC(=O)[C@H](CCC(=O)N2CCCC2)NC(=O)[C@H](CC(C)C)NC(=O)[C@H](CC(C)C)NC(=O)[C@@H](CC(C)C)NC1=O", "lipophilic permeability efficiency": 1.81}
{"SMILES": "CC(C)C[C@@H]1NC(=O)[C@H](CC(C)C)NC(=O)[C@H](CC(C)C)NC(=O)[C@@H](C)NC(=O)[C@H](C(C)C)NC(=O)[C@H](C)NC(=O)[C@H](C)NC1=O", "lipophilic permeability efficiency": 1.63}
{"data": "Series 3", "Structure (SMILES)": "C[C@H](c1ccnc(Nc2nc3ccc(-c4cc(N(C)C)ncn4)cc3[nH]2)c1)N1CCN(C(=O)CC(F)(F)F)CC1", "tested at": "0.1 µM"}
{"target": "NEK4 (Homo sapiens, UniProt P51957)", "assay": "cell-free assay, competition with immobilised ligand", "remaining binding [%]": 100}
{"target": "SGK2 (Homo sapiens, UniProt Q9HBY8)", "assay": "cell-free assay, competition with immobilised ligand", "remaining binding [%]": 100}
{"target": "STK38L (Homo sapiens, UniProt Q9Y2H1)", "assay": "binding, competition with immobilised ligand", "remaining binding [%]": 65}
{"target": "MKNK1 (Homo sapiens, UniProt Q9BUB5)", "assay": "cell-free assay, competition with immobilised ligand", "remaining binding [%]": 92}
{"target": "STK32A (Homo sapiens, UniProt Q8WU08)", "assay": "cell-free assay, competition with immobilised ligand", "remaining binding [%]": 100}
{"target": "ULK1 (Homo sapiens, UniProt O75385)", "assay": "cell-free assay, competition with immobilised ligand", "remaining binding [%]": 95}
{"target": "Tyrosine-protein kinase JAK1, JH1 (JAK1, Homo sapiens, UniProt P23458)", "assay": "cell-free assay, competition with immobilised ligand", "remaining binding [%]": 92}
{"target": "PRKAA2 (Homo sapiens, UniProt P54646)", "assay": "cell-free assay, competition with immobilised ligand", "remaining binding [%]": 100}
{"target": "SIK1 (Homo sapiens, UniProt P57059)", "assay": "competition binding", "remaining binding [%]": 96}
{"target": "BMX (Homo sapiens, UniProt P51813)", "assay": "cell-free assay, competition with immobilised ligand", "remaining binding [%]": 100}
{"target": "PIK3CD (Homo sapiens, UniProt O00329)", "assay": "cell-free assay, competition with immobilised ligand", "remaining binding [%]": 100}
{"target": "ULK2 (Homo sapiens, UniProt Q8IYT8)", "assay": "cell-free assay, competition with immobilised ligand", "remaining binding [%]": 100}
{"target": "STK17B (Homo sapiens, UniProt O94768)", "assay": "cell-free assay, competition with immobilised ligand", "remaining binding [%]": 100}
{"target": "CAMK1G (Homo sapiens, UniProt Q96NX5)", "assay": "cell-free assay, competition with immobilised ligand", "remaining binding [%]": 76}
{"target": "AKT1 (Homo sapiens, UniProt P31749)", "assay": "cell-free assay, competition with immobilised ligand", "remaining binding [%]": 100}
{"target": "KIT (Homo sapiens, UniProt P10721, L576P)", "assay": "cell-free assay, competition with immobilised ligand", "remaining binding [%]": 91}
{"data": "Series 4", "target": "Calcium/calmodulin-dependent protein kinase type II subunit alpha (CAMK2A, Homo sapiens, UniProt Q9UQM7)", "read-out": "enzyme activity", "mode": "inhibitor", "tested at": "10 µM", "chain of UniProt Q9UQM7 (whole entry, looked up)": "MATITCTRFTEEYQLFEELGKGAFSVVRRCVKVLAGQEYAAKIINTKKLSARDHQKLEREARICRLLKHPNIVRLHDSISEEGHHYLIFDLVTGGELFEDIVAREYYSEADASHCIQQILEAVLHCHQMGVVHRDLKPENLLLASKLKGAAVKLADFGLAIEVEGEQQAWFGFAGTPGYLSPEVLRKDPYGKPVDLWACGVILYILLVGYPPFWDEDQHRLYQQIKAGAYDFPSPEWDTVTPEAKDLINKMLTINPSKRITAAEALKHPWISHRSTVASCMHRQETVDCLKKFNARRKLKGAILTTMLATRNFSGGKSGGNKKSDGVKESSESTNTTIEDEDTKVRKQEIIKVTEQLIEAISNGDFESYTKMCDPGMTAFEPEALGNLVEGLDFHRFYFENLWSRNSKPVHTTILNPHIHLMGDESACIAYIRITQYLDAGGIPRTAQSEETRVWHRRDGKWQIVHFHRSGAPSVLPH"}
{"SMILES": "CCOc1ncc(C)c2c1[C@H](c1ccc(C#N)cc1OC)C(C(N)=O)=C(C)N2", "inhibition": "2%"}
{"SMILES": "NCC[C@H](O)C(=O)N[C@@H]1C[C@H](N)[C@@H](O[C@H]2O[C@H](CN)[C@@H](O)[C@H](O)[C@H]2O)[C@H](O)[C@H]1O[C@H]1O[C@H](CO)[C@@H](O)[C@H](N)[C@H]1O", "inhibition": "-5%"}
{"SMILES": "CC(=O)O[C@]1(C(C)=O)CC[C@H]2[C@@H]3C=C(Cl)C4=CC(=O)CC[C@]4(C)[C@H]3CC[C@@]21C", "inhibition": "-6%"}
{"SMILES": "O=C(O)CCc1ccccc1", "inhibition": "27%"}
{"SMILES": "CCC(=O)O[C@]1(C(C)=O)CC[C@H]2[C@@H]3CCC4=CC(=O)C=C[C@]4(C)[C@H]3[C@@H](O)C[C@@]21C", "inhibition": "-2%"}
{"SMILES": "COc1cc(O)ccc1/C=C/C(=O)c1ccc(O)cc1", "inhibition": "14%"}
{"note": "Excerpt of the above (series 3):"}
{"target": "SGK2 (Homo sapiens, UniProt Q9HBY8)", "assay": "cell-free assay, competition with immobilised ligand", "remaining binding [%]": 100}
{"target": "MKNK1 (Homo sapiens, UniProt Q9BUB5)", "assay": "cell-free assay, competition with immobilised ligand", "remaining binding [%]": 92}
{"target": "STK17B (Homo sapiens, UniProt O94768)", "assay": "cell-free assay, competition with immobilised ligand", "remaining binding [%]": 100}
{"target": "ULK2 (Homo sapiens, UniProt Q8IYT8)", "assay": "cell-free assay, competition with immobilised ligand", "remaining binding [%]": 100}
